Published values collected from several papers.

SMILES | system | conditions | Vz/F
C[C@H](Oc1ccc(Br)cc1-c1ccon1)C(=O)O | healthy male humans, plasma | oral, 600 mg once daily, day 10 | 38.1 L
CC1(C)CC[C@]2(NC(=O)C(C)(F)F)CC[C@]3(C)[C@H](C(=O)C=C4[C@@]5(C)C=C(C#N)C(=O)C(C)(C)[C@@H]5CC[C@]43C)[C@@H]2C1 | human, plasma | oral, 150 mg, single dose alone, geometric mean | 11200 L
C[C@@H](c1ccc2nccn2c1)n1nnc2ncc(-c3cnn(C)c3)nc21 | human, plasma | oral, cycle 1 day 1, single dose, all | 178 L
CN(C)C(=O)c1cc2cnc(Nc3ccc(N4CCNCC4)cn3)nc2n1C1CCCC1 | human, severe renal impairment, plasma | oral, 400 mg, geometric mean | 2970 L
CN1C(=O)[C@@H](NC(=O)c2nnc(Cc3ccccc3)[nH]2)COc2cccnc21 | healthy human, fasted, plasma | oral, 10 mg single dose, geometric mean | 46.9 L
C#C[C@]1(CO)O[C@@H](n2cnc3c(N)nc(F)nc32)C[C@@H]1O | human, plasma | oral, 100 mg, single dose, geometric mean | 2480 L
Cn1cc(-c2cn3nccc3c(-c3cnn([C@]4(CC#N)C[C@@H](C#N)C4)c3)n2)cn1 | healthy human, plasma | 100 mg once daily, day 10, multiple dose, fed, geometric mean | 644 L
Fc1ccc([C@@H]2CCNC[C@H]2COc2ccc3c(c2)OCO3)cc1 | human, CYP2D6 poor metabolizers | oral, 20 mg, steady state, geometric mean | 736 L

Some of these lines once more:
SMILES | system | conditions | Vz/F
Cn1cc(-c2cn3nccc3c(-c3cnn([C@]4(CC#N)C[C@@H](C#N)C4)c3)n2)cn1 | healthy human, plasma | 100 mg once daily, day 10, multiple dose, fed, geometric mean | 644 L
